Experimental data pooled from the literature.
Compare with care: the assays were run in different laboratories. Values joined by “and” are separate records of one study, mostly repeats; a detail may differ. Numbers after ± are the reported error. Converted amounts (≈) assume the structure as drawn.

O=C(Nc1ccc([N+](=O)[O-])cc1Cl)c1cc(Cl)ccc1O — viral progeny production (human adenovirus C5 reporter virus; A549; concentration not given, 72 h post-infection): no effect
N[C@@H](CCO)C(=O)O — relative parasite number (Cryptosporidium parvum; image-based; HCT-8; 1 mM, 24 h post-infection; baseline: PBS): 1.02 ± 0.084
N=C(N)c1ccc(OCCCCCOc2ccc(C(=N)N)cc2)cc1 — MIC in combination (Escherichia coli; BW25113; concentration not given, lowest-FICI combination, with: erythromycin): 50 µg/mL
CC(=O)NCCc1c[nH]c2ccc(O)cc12 — z-scored log2 fold change (binding, equilibrium dialysis LC-MS; 5 µM, thermostabilized A2AR-BRIL construct; baseline: no-protein control, direction not given): 0.594
CC(=O)NC[C@H]1CN(c2ccc(N3CCOCC3)c(F)c2)C(=O)O1 — ED50 (Staphylococcus haemolyticus; mouse systemic infection; intravenous; survival): 13.4 mg/kg
COC(=O)[C@@H](N)Cc1ccc(O)cc1 — relative parasite number (Cryptosporidium parvum; image-based; HCT-8; 1 mM, 24 h post-infection; baseline: PBS): 0.853 ± 0.06
Cc1nc(N(C)C(=O)Cc2ccc(-c3ccccn3)cc2)sc1S(N)(=O)=O — selectivity index (human alphaherpesvirus 1; primary human fibroblasts, K26 GFP; CC50 capped at 10.00 µM; baseline: CC50 over IC50): > 66.7
CCn1c(=O)c(-c2cc[nH]n2)cc2c(C)nc(N)nc21 — viral titre (Coxsackievirus B4; viral replication; HeLa, CVB4-5; concentration not given, 20 h): decreased
CCCN(C)c1ccc(CN2CCC(COc3cccc(Oc4ccccc4)c3)CC2)cc1 — minimum bactericidal concentration (Mycobacterium tuberculosis; ATCC 25618; compound alone): 50 µM (≈ 22.2 µg/mL)
Nc1nc(-c2ccccc2)nc2[nH]nc(Nc3ccc(C(F)(F)F)cc3)c12 — clinical score (coxsackievirus B3; 31-1-93, NMRI mice, CVB3 chronic myocarditis; oral, 100 mg/kg twice daily, day 10, dosed days 3 to 10, score scale 0 to 7; direction not given): 1.3
CC(C)n1ncc2c(C(=O)NCC3(C)CNC3)cc(C3CC3)nc21 — virus titre (Enterovirus D68; time-of-addition; RD, US/MO/14-18947; 3 µM, 3 to 3 h post infection): 300 PFU/mL and 400 PFU/mL
CCCCCCc1ccc(Oc2ccccc2C)c(O)c1 — additional CFU reduction (Mycobacterium tuberculosis; mouse, rapid infection model, spleen; 50 mg/kg twice daily, SMEDDS formulation, with: rifampicin 10 mg/kg; baseline: rifampicin alone): 1.7 log10 CFU
CNC(C)C1CCC(N)C(OC2C(N)CC(N)C(OC3OCC(C)(O)C(NC)C3O)C2O)O1 (stereo not shown) — MIC (Salmonella enterica serovar Choleraesuis; broth microdilution; clinical isolate RKI-No 532/14-1): 4 µg/mL (≈ 8.38 µM)
COc1ccnc(C(=O)NCC(=O)O)c1O — EC50 (Daphnia magna; immobilisation, semi-static water exposure; 48 h): > 10 µg/mL
N=C(N)c1ccc(OCc2ccc(-c3ccccc3)cc2COc2ccc(C(=N)N)cc2)cc1 — MIC of compound in combination (Escherichia coli; checkerboard; BW25113; concentration not given, lowest-FICI combination, with: rifampicin): 6.25 µg/mL
C=CC(=O)N1CC/C(=C\c2ccc(F)c([N+](=O)[O-])c2)C(=O)/C(=C/c2ccc(F)c([N+](=O)[O-])c2)C1 — selectivity index (human alphaherpesvirus 1; primary human fibroblasts, K26 GFP; baseline: CC50 over IC50): 2.73
N=C(N)c1ccc(OCc2cc(Br)cc(COc3ccc(C(=N)N)cc3)c2)cc1 — MIC of compound in combination (Escherichia coli; checkerboard; BW25113; concentration not given, lowest-FICI combination, with: rifampicin): 12.5 µg/mL
CO[C@H]1/C=C/O[C@@]2(C)Oc3c(C)c(O)c4c(O)c(c(/C=N/N5CCN(C)CC5)c(O)c4c3C2=O)NC(=O)/C(C)=C\C=C\[C@H](C)[C@H](O)[C@@H](C)[C@@H](O)[C@@H](C)[C@H](OC(C)=O)[C@@H]1C — bacterial load reduction (Mycobacterium tuberculosis; Mus musculus, spleen; 10 mg/kg, suspended in PBS, monotherapy): ~2 log10 CFU
N=C(N)c1ccc(OCc2ccccc2COc2ccc(C(=N)N)cc2)cc1 — MIC in combination (Escherichia coli; BW25113; concentration not given, lowest-FICI combination, with: erythromycin): 25 µg/mL
O=C(/C=C\n1cnc(-c2cc(C(F)(F)F)cc(C(F)(F)F)c2)n1)NNc1ccccn1 — selectivity index (human alphaherpesvirus 1; primary human fibroblasts, K26 GFP; baseline: CC50 over IC50): 1
Cc1ccc(N(c2ccc(NC(=O)CN(C)c3ccccc3N3CCCC3=O)cc2)C(C)C)cc1 — lag phase (Plasmodium falciparum; 3D7 asexual blood stage; 10 x EC50): 24 h
CC(C)CC(=O)C(=O)[O-].[Na+] — relative parasite number (Cryptosporidium parvum; image-based; HCT-8; 1 mM, 24 h post-infection; baseline: PBS): 0.86 ± 0.246
CCCCCCc1ccc(Oc2ccccc2Cl)c(O)c1 — CFU reduction (Mycobacterium tuberculosis; mouse, rapid infection model, spleen; 25 mg/kg twice daily, SMEDDS formulation): 0.78 log10 CFU
COc1ccc(-c2nc(N3CCOCC3)c3sc(CN(C)c4ncc(C(=O)NO)cn4)cc3n2)cn1 — IC50 (human alphaherpesvirus 1; live-cell GFP imaging; primary human keratinocytes, K26 GFP): 950 nM
O=C(CO)[C@@H](O)[C@H](O)[C@H](O)COP(=O)(O)O — z-scored log2 fold change (binding, equilibrium dialysis LC-MS; 5 µM, thermostabilized A2AR-BRIL construct; baseline: no-protein control, direction not given): 0.126
Cc1cc(OC(C)C)ccc1C(=O)C(C)(C)NC(=O)c1sccc1C — inhibition (Botrytis cinerea; conidial germination; B05.10; 30 µg/mL): 100%
O=C(Nc1ccc([N+](=O)[O-])cc1Cl)c1cc(Cl)ccc1O — IC50 (human alphaherpesvirus 1; live-cell GFP imaging; primary human fibroblasts, K26 GFP): 370 nM
CN[C@H](CC(C)C)C(=O)N[C@H]1C(=O)N[C@@H](CC(N)=O)C(=O)N[C@H]2C(=O)N[C@H]3C(=O)N[C@H](C(=O)N[C@H](C(=O)O)c4cc(O)cc(O)c4-c4cc3ccc4O)[C@H](O)c3ccc(c(Cl)c3)Oc3cc2cc(c3O[C@@H]2O[C@H](CO)[C@@H](O)[C@H](O)[C@H]2O[C@H]2C[C@](C)(N)[C@H](O)[C@H](C)O2)Oc2ccc(cc2Cl)[C@H]1O — MIC50 (Staphylococcus epidermidis; broth microdilution; methicillin-resistant isolates): 1 µg/mL (≈ 0.69 µM)
CC(=O)N1CCC(C(=O)N2CCN3C(=O)c4cc(-c5ccccc5)ccc4NC(=O)C3C2)CC1 (stereo not shown) — median lifespan (Caenorhabditis elegans; N2; 100 µM): 29 days
COc1ccc(NC(=O)N2CCCCN3[C@H](CN(C)C)[C@H](c4ccc(C#Cc5ccccc5)cc4)[C@@H]3C2)cc1 — concentration for maximal kill rate (Cryptosporidium parvum; HCT-8): 3 × EC90
COC(=O)[C@H](Cc1c[nH]c2ccccc12)NCc1cc2ccccc2nc1SC — growth (Pseudomonas aeruginosa; 32 µg/mL, with: pentamidine 100 µM; baseline: control): 51.1%
CN[C@H](CC(C)C)C(=O)N[C@H]1C(=O)N[C@@H](CC(N)=O)C(=O)N[C@H]2C(=O)N[C@H]3C(=O)N[C@H](C(=O)N[C@H](C(=O)O)c4cc(O)cc(O)c4-c4cc3ccc4O)[C@H](O)c3ccc(c(Cl)c3)Oc3cc2cc(c3O[C@@H]2O[C@H](CO)[C@@H](O)[C@H](O)[C@H]2O[C@H]2C[C@](C)(N)[C@H](O)[C@H](C)O2)Oc2ccc(cc2Cl)[C@H]1O — isolates inhibited (coagulase-negative staphylococci; concentration not given, MIC ≤4 µg/mL): 1.5%
Cc1ccc(NC(=O)N2Cc3[nH]cnc3C[C@H]2c2nc(-c3ccc4c(c3)OCO4)no2)cc1 — mean lifespan (Caenorhabditis elegans; N2; 50 µM): 21.1 days
COC(=O)[C@@H](NCc1cc2ccccc2nc1OCc1ccccc1)C(C)C — growth (Pseudomonas aeruginosa; 2 µg/mL, without pentamidine; baseline: control): 96.4%
CCCc1nn(C)c2c(=O)[nH]c(-c3cc(S(=O)(=O)N4CCN(C)CC4)ccc3OCC)nc12 — inhibition (Cryptosporidium parvum; parasite growth, immunofluorescence imaging; HCT-8, Iowa; 74.1 nM): -31.3% and -15.5%
COC(=O)[C@@H](CCSC)NCc1cc2ccccc2nc1SC — growth (Pseudomonas aeruginosa; 64 µg/mL, with: pentamidine 50 µM; baseline: control): 70.9%
CC1(C)S[C@@H]2[C@H](NC(=O)[C@H](N)c3ccccc3)C(=O)N2[C@H]1C(=O)O — MIC (Salmonella enterica serovar Derby; broth microdilution; clinical isolate RKI-No 436/14): > 16 µg/mL

Repeated from above:
COc1ccnc(C(=O)NCC(=O)O)c1O — EC50 (Daphnia magna; immobilisation, semi-static water exposure; 48 h): > 10 µg/mL
O=C(/C=C\n1cnc(-c2cc(C(F)(F)F)cc(C(F)(F)F)c2)n1)NNc1ccccn1 — selectivity index (human alphaherpesvirus 1; primary human fibroblasts, K26 GFP; baseline: CC50 over IC50): 1
N=C(N)c1ccc(OCc2ccc(-c3ccccc3)cc2COc2ccc(C(=N)N)cc2)cc1 — MIC of compound in combination (Escherichia coli; checkerboard; BW25113; concentration not given, lowest-FICI combination, with: rifampicin): 6.25 µg/mL
CCCCCCc1ccc(Oc2ccccc2Cl)c(O)c1 — CFU reduction (Mycobacterium tuberculosis; mouse, rapid infection model, spleen; 25 mg/kg twice daily, SMEDDS formulation): 0.78 log10 CFU
N=C(N)c1ccc(OCCCCCOc2ccc(C(=N)N)cc2)cc1 — MIC in combination (Escherichia coli; BW25113; concentration not given, lowest-FICI combination, with: erythromycin): 50 µg/mL
COc1ccc(-c2nc(N3CCOCC3)c3sc(CN(C)c4ncc(C(=O)NO)cn4)cc3n2)cn1 — IC50 (human alphaherpesvirus 1; live-cell GFP imaging; primary human keratinocytes, K26 GFP): 950 nM
